# Experimental data collected from several papers.
# Every numbered part comes from another study and shows a few of its results, in no order.

# Study 1
# Target: Histone acetyltransferase KAT6A, winged helix 1, GST fusion (KAT6A, Homo sapiens, UniProt Q92794, residues 1-85)
# Method: protein binding microarray
# Form: double-stranded DNA, one strand shown
# Matrix: in vitro
# Tested at: not given
# Notes: 8-mer, flanks averaged, mean of 2 arrays, mostly near background
# Baseline: not given
# Direction: higher = stronger binding
# Construct (chain): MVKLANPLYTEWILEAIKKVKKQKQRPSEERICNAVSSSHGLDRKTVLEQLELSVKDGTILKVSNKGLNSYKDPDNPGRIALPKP
Oligonucleotide,E-score
GATAAACA,-0.0651
CAAGAAGG,-0.0713
GATGTACC,-0.0871
ACGGATCG,0.225
ATAGTGCG,0.273
AGTCCGGC,0.288
AACACGGC,0.346
CGTCAAGA,0.0195
AGGAAGTC,-0.162
ATGGCACA,-0.181
ATCCATAA,-0.0996
TTCGCAAA,-0.0351
AAAACAAT,-0.0512
AAAGGCCG,0.353
AGATGGTG,-0.241
CGCCCCAA,0.108
ACCACGCA,0.00685
ACGCCACT,-0.0517
AATCTGCA,-0.214
AGAGACTC,-0.186
ACACTCTA,-0.108
AAGATACC,0.0336

# Study 2
# Target: RING finger protein unkempt homolog, zinc fingers 1-6, GST-SBP tag (UNK, Homo sapiens, UniProt Q9C0B0, residues 30-357)
# Method: RNA Bind-n-Seq
# Form: RNA
# Matrix: in vitro
# Tested at: not given
# Notes: RNA with constant flanks, human and mouse sites, ends assumed
# Baseline: input RNA pool
# Direction: higher = stronger binding
# Construct (chain): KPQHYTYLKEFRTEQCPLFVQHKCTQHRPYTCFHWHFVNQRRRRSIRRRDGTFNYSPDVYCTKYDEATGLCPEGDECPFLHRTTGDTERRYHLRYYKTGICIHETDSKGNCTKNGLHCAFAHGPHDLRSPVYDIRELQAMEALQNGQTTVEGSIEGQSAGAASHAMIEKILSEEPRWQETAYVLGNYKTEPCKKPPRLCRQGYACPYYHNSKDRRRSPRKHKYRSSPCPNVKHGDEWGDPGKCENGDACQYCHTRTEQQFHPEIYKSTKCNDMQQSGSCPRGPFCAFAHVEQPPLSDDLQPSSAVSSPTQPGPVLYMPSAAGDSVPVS
Oligonucleotide,bound/input enrichment
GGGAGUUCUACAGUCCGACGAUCACGAGCGUAGCUUCCAGAAUUGGAGCCCAGGCCCUCCCGCGCAGCUCGGCUGCAGGUUUGGCUUGUCAGAGGCUGAGAAGGGACGGAGGAGGCUCGGGUCCCCCCCACCCCAUCACAGCUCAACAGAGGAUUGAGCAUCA,0.155 ratio
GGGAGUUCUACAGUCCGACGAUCAAAAAGAUUGACCUGCAGAAAAAACAGACUCAGAGAAAUGUGUUCAGGUGUAAUGUAAUUGGAGUGAAAGGCUGUGGGAAAACUGGAGUUCUUCAGUCUCUCCUUGGAAGAAACCUAAUGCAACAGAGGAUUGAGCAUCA,0.222 ratio
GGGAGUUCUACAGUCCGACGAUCACGGUCACCAUCCUUGUCAGCCUGGCCCUAGCUUUCCUUGCGUGCAUCGUGUUCCUGGUGGUUUACAAAGCCUUCACCUAUGAUCACAGCUGCCCAGAGGGAUUCGUCUAUAAGCACAAACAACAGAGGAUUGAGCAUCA,0.114 ratio
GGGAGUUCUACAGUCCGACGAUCGGUUUGAUGCCUGGCACUUCAAGUGAUUUCAAGUAUGGGUUGCUACCAAGUACUUCAAAUGACUUCAAAUUCGGAUUGCUACCGGGUGCUUCAAAUGAUUUCAAGUAUGGAUUAUUGCCACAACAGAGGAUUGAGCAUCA,0.0999 ratio
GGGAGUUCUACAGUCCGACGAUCACACCUCUGUUUCUUGCUGCCCGGGAGGGGAGCUAUGAAGCAGCCAAGAUCCUGUUAGACCAUUUUGCCAAUCGAGACAUCACAGACCAUAUGGAUCGUCUUCCCCGGGAUGUGGCUCGGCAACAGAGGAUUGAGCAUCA,0.247 ratio
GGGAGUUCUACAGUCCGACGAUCCUGAAGUGUUCCUGUUUGUCUUAUCCUGGCCCUGGCCAGACGUUUUCUUUGAUUUUUAAUUUUUUUUUUUUAUUAAAAGAUACCAGUAUGAGAUGAAAACUUCCAAUAAUUUGUCCUAUACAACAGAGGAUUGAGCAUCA,0.577 ratio
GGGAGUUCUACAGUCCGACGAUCCUCAACACGGUGAAGCAGAAGCUGUUUACCGAGGUGGAGGGGACCUGCACUGGGAAAUAUGGCUUUGUAAUUGCUGUCACCACCAUCGACAAUAUUGGUGCUGGUGUGAUCCAGCCAGGCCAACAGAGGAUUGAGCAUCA,0.0811 ratio
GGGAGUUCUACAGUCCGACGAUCAAUGAGGCUGGUGAUGACCUUGAAGCUGUAGCCAAAUUUCUGGACUCUACAGGCUCAAGAUUAGAUUAUCGUCGCUAUGCAGACACACUCUUCGAUAUCCUGGUGGCUGGCAGUAUGCUUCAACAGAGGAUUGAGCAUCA,0.328 ratio

# Study 3
# Target: Fragile X messenger ribonucleoprotein 1, C-terminal low-complexity region (Fmr1, Mus musculus, UniProt P35922)
# Method: RNA Bind-n-Seq
# Form: RNA
# Matrix: in vitro
# Tested at: 200 nM
# Notes: whole 134-nt RNA, ends assumed
# With: 150 mM KCl
# Baseline: input library
# Direction: higher = stronger binding
Oligonucleotide,log2 enrichment
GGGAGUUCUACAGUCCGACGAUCCUGUGCUACACAUCGUAUGUACCGAAUCGGGGAAAAAAAGGGGAAAAAAAGGAAAAAAAGGAAAGUAUUAUGUUACGCCGUUCGGAUCUGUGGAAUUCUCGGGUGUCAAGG,-0.633
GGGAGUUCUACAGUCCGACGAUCCUCAAGUCCUGUGCUACACAUCGUAUGUACCGAAUCGGAAAGGUUUUUGGAGGAAAGUAUUAUGUUACGCCGUUCGGAUCUGCACUUCCAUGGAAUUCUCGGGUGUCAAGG,-0.22
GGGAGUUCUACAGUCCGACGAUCAAGUCCUGUGCUACACAUCGUAUGUACCGAAUCGGUUUGGUUUUUGGUUUUUUUGGAAAGUAUUAUGUUACGCCGUUCGGAUCUGCACUUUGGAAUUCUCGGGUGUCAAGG,-0.932
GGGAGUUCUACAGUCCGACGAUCCCUGUGCUACACAUCGUAUGUACCGAAUCAAACCCCCAAACCCCCCCAAAUUUUUUUAAAAAAGUAUUAUGUUACGCCGUUCGGAUCUGCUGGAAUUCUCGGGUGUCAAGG,-0.153
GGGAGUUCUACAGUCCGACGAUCUAACUUUAGAGGAGGAUCUGAUGGAUAUGGCAGUGGACGUGGAUUUGGGGAUGGCUAUAAUGGGUAUGGAGGAGGACCUGGAAGUGGCAAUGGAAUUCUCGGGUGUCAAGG,0.236
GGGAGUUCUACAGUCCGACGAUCUGUGCUACACAUCGUAUGUACCGAAUCGGGGUUUUUUUGGGGUUUUUUUGGGUUUUUUUGGGAAAGUAUUAUGUUACGCCGUUCGGAUCUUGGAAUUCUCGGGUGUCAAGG,0.0969
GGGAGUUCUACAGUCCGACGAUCCUCAAGUCCUGUGCUACACAUCGUAUGUACCGAAUCGGUUUUUGGUGGUUUGGAAAGUAUUAUGUUACGCCGUUCGGAUCUGCACUUCCAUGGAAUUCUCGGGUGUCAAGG,-0.369
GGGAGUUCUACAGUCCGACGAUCAGUCCUGUGCUACACAUCGUAUGUACCGAAUCGGGUUUUUUUGGGUGGGAAAAAGGGAAAGUAUUAUGUUACGCCGUUCGGAUCUGCACUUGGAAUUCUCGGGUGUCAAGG,0.513
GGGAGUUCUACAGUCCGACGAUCAAGUCCUGUGCUACACAUCGUAUGUACCGAAUCGGUUUUUGGAAAAAAAGGUUUGGAAAGUAUUAUGUUACGCCGUUCGGAUCUGCACUUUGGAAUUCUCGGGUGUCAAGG,-1.32

# Study 4
# Target: RNA binding protein fox-1 homolog 2, RRM domain, GST-SBP tag (RBFOX2, Homo sapiens, UniProt O43251-10, residues 100-194)
# Method: RNA Bind-n-Seq
# Form: RNA
# Matrix: in vitro
# Tested at: 365 nM
# Notes: natural RNA segment, single round, ends assumed
# Baseline: no-protein control
# Direction: higher = stronger binding
# Residues (chain): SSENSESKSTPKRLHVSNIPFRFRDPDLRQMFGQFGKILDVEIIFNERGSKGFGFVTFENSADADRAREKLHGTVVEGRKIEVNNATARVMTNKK
Oligonucleotide,RBNS enrichment (R)
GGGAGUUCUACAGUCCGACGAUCACACCACACCAGCUUGUUGGUUCCUGAUGGUUUUCUUAGACUUCUCCGCUCCCCCCACAUCCCAGCCUGGACUUCUCCUGAGUAUGGGGCUUUUUCUGGCAGCCAGAAGCUGGAAUUCUCGGGUGCCAA,0.279
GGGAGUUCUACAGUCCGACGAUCAAGGACAUCCGCUUGACUCCCCACUCACCAUCAGGCCACACUUUUAAAGAAAAAUUGUUCUCUAACCAGGAUUGUAACAAAUGUGUAAAUAGUAUUUCUGAGUUGAAAGUUGGAAUUCUCGGGUGCCAA,0.707
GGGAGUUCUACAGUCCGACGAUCCACUGAGGCUUCGUCCUUAUAGUAGUCAGGAGCAGGCGAUUGAAGUAAUUCUGUCCUGCGGGGUUCAGCAUCAUGCACGUUCCCCCUGGGCCAUUCUCUGAUGCAGGGCAUGGAAUUCUCGGGUGCCAA,0.577
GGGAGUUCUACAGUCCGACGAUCGGCCCCUGGAAAGCAGGGGUUACCGUUACGAGGCUGUGGUCCGGGGCAAGCCAAGUACGAAGCAGCAGCCAUCGCGGGCUGCAUCAUCCCCCAGCCAGGUCCCCACCAGGUGGAAUUCUCGGGUGCCAA,0.244
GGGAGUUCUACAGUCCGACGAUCAUGGUGCAUAGGUCUGGAAGGUCUGAUCUCCCUUGGUCUUCCAUGGGAUGGUUAGUGUGGAGGGGAGAUAUAGAUUGUCCGGCCGCUUUGUGAUUCCAUGGAUUGAUUCAUGGAAUUCUCGGGUGCCAA,0.951
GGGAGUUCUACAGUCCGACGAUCUUGGGGGGCUGACACCCAGAGAACAAGGACACUCAGAUGGGAGUUGGUAGUACGUGGUACAGUGGCUUUUCUCUGUGGUCAUGUCUUAGGGGCAAAGGCGUGUGGAUGGUUGGAAUUCUCGGGUGCCAA,0.945
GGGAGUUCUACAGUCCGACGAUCUUUCCUGGCACGAAAAGUAGCCGCUCUGGUUGAAGCUUUGCUUAUUGUAACAGGCUUUUAUUUCCAGGUAAUAUGUCUUGGAAGACUUAAUUCUGAUUAGAGAUAUAGAUUGGAAUUCUCGGGUGCCAA,0.393
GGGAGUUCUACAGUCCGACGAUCCUAUAACCUUCCCCUUUUACCUCAAUUAUUUGAUAAUUUCCCCACCCAGCCCCUCAUCCACCUGGAAUUUGAGGAGGAGAAAUGAAAAAACAGUGUGUCACUGGUGUCACUGGAAUUCUCGGGUGCCAA,0.797
